# Measured values from different studies.
# Each line is one published result; not all experiments were run side by side. Several values in a cell are separate wells, animals, samples, runs or records. Numbers after ± are the reported error.
Compound,organism,test,test system,conditions,scale,measurement,result
C=CC[C@@H]1c2ccc(OC)c(OC)c2CN2CCc3cc4c(cc3[C@H]12)OCO4,Staphylococcus aureus,,"P2rx7+/+ mice, skin wound infection","dose not given, day 6",relative to: day 0,relative wound size,0.26 and 0.73 and 0.92 and 0.16 and 0.32 and 0.33
CCCCN(C)CC#Cc1ccc2[nH]c(C)c(Cl)c(=O)c2c1,Plasmodium yoelii,,17XL,384-well,,IC50,770 ± 589 nM
N=C(N)c1ccc(OCc2cc(COc3ccc(C(=N)N)cc3)cc(-c3ccccc3)c2)cc1,Escherichia coli,checkerboard,BW25113,"concentration not given, lowest-FICI combination, added: rifampicin",,MIC of compound in combination,3.13 µg/mL
Oc1c(I)cc(I)c2cccnc12,Trichomonas gallinae,CCK-8,trophozoites,24 h,,IC50,8200 nM
COC1=CC(c2ccc[nH]2)=N/C1=C\c1[nH]c(C)cc1Cc1ccc(OC(F)(F)F)cc1.Cl,Plasmodium yoelii,,CF1 mice,"oral, 25 mg/kg daily for 4 days, day 5",relative to: vehicle,parasitaemia reduction,100%
O=c1c(O)c(-c2ccc(O)c(O)c2)oc2cc(O)cc(O)c12,Chromobacterium violaceum,violacein production,ATCC 31532,"400 µM, quorum sensing reporter",,inhibition,64.2%
CCOc1ccc2cc(-c3nn(CC4CCNCC4)c4ncnc(N)c34)ccc2c1,Theileria equi,hydroethidine flow cytometry,USDA Florida,"3 µM, 72 h",,% of maximum PPE,88.1%
CSc1ccc(OCc2ncc([N+](=O)[O-])n2C)cc1,Trichomonas gallinae,CCK-8,,"20 µM, 24 h",,inhibition,> 70% and 98.7%
Cc1[nH]c(C)c(-c2ccc(-c3ccc(Cl)cc3)cc2)c(=O)c1Cl,Plasmodium yoelii,,17XL,384-well,,IC50,209 ± 48 nM
N=C(N)c1ccc(OCc2ccc(Br)cc2COc2ccc(C(=N)N)cc2)cc1,Escherichia coli,checkerboard,mcr-2 polymyxin-resistant,"unit not given, added: rifampicin",lower = stronger synergy,FICI,0.063
Cc1[nH]c(/C=C2\N=C(c3ccc[nH]3)C=C2OCc2ccccc2)cc1Cc1ccc(OC(F)(F)F)cc1,Plasmodium yoelii,parasitaemia,mouse,"4-day treatment, parasitaemia day 5",,ED50,2.57 mg/kg/day
CC(=O)c1c(O)c(C)c(O)c2c1OC1=CC(=O)C(C(C)=O)C(=O)C12C (stereo not drawn),Trichomonas gallinae,CCK-8,trophozoites,24 h,,IC50,15400 nM
CC(=O)Oc1ccccc1C(=O)Nc1ncc([N+](=O)[O-])s1,Cryptosporidium parvum,,HCT-8,"EC50, 24 h",relative to: DMSO control,parasite number,75.9% and 105% and 96.2% and 111%
O=C(Nc1cccc(C2=NCCN2)c1)Nc1cccc(C2=NCCN2)c1,Theileria equi,"parasite growth, flow cytometry","horse erythrocytes, USDA Florida strain","0.344 µM, 72 h",,inhibition,9.59%
COC1=CC(c2ccc[nH]2)=N/C1=C\c1[nH]c(Cc2ccc(OC(F)(F)F)cc2)cc1Cc1ccc(OC(F)(F)F)cc1,Plasmodium yoelii,,CF1 mice,"oral, 10 mg/kg daily for 4 days, day 5",relative to: vehicle,parasitaemia reduction,100%
Nc1nc(-c2ccccc2)nc2[nH]nc(Nc3ccc(C(F)(F)F)cc3)c12,coxsackievirus B3,,"31-1-93, NMRI mice, CVB3 chronic myocarditis","oral, 100 mg/kg twice daily, day 4, dosed days 0 to 6, score scale 0 to 7",direction not given,clinical score,0.4
CCOc1ccc2cc(-c3nn(CC4CCN(C)CC4)c4ncnc(N)c34)ccc2c1,Theileria equi,hydroethidine flow cytometry,USDA Florida,"0.3 µM, 72 h",,% of maximum PPE,93.9%
Cc1cc(Nc2ccc(S(F)(F)(F)(F)F)cc2)n2nc(C(C)(F)F)nc2n1,Plasmodium vivax,,infected patients,dose not given,,time to clear 99% of initial parasitaemia,~4 days
O=c1c(-c2nc3ccccc3s2)cc2c(n1NS(=O)(=O)c1ccccc1)CCCC2,Hepatitis C virus,"viral replication, qRT-PCR","Huh7.5 cells, genotype 4 ED-43/SG-Feo",non-toxic concentration,,reduction,30%
CCCCCCCCCC(=O)N[C@@H](Cc1c[nH]c2ccccc12)C(=O)N[C@H](CC(N)=O)C(=O)N[C@@H](CC(=O)O)C(=O)N[C@@H]1C(=O)NCC(=O)N[C@@H](CCCN)C(=O)N[C@@H](CC(=O)O)C(=O)N[C@H](C)C(=O)N[C@@H](CC(=O)O)C(=O)NCC(=O)N[C@H](CO)C(=O)N[C@@H]([C@H](C)CC(=O)O)C(=O)N[C@@H](CC(=O)c2ccccc2N)C(=O)O[C@@H]1C,Staphylococcus simulans,broth microdilution,"22, Mueller-Hinton broth, Mg2+ 10 mg/L","16 h, 30 °C, added: Ca2+ 5 mM",,MIC,0.031 µg/mL
CC(C)n1ncc2c(C(=O)NCC3(C)CNC3)cc(C3CC3)nc21,enterovirus D68,,recombinant US/MO/14-18947 wild type,5000 nM,,plaque reduction,100%
CNC(C)C1CCC(N)C(OC2C(N)CC(N)C(OC3OCC(C)(O)C(NC)C3O)C2O)O1 (stereo not drawn),Pseudomonas aeruginosa,,clinical isolate RKI-No_481/15,,,MIC,> 8 µg/mL
CCc1ccc(C(=O)NC(=O)c2ccccc2O)cc1,Plasmodium yoelii,,17XL,384-well,,IC50,113 ± 53 nM
COc1ccc(-c2nc(N3CCOCC3)c3sc(CN(C)c4ncc(C(=O)NO)cn4)cc3n2)cn1,herpes simplex virus 1,viral replication,"K26, GFP-expressing, 3D bioprinted skin, submerged",,,IC50,1450 nM
Nc1cc(Cl)ccc1C(=O)NCCCCNc1ccnc2cc(Cl)ccc12,Chromobacterium violaceum,violacein production,ATCC 31532,"400 µM, quorum sensing reporter",,inhibition,34.9%
C=CCOc1ccc(-c2c(C)[nH]c(C)c(Br)c2=O)cc1,Plasmodium yoelii,,17XL,384-well,,IC50,712 ± 360 nM
C=C[C@]1(C)C[C@@H](OC(=O)CS[C@@H]2C[C@H]3CC[C@@H](C2)N3C)[C@]2(C)[C@H](C)CC[C@]3(CCC(=O)[C@H]32)[C@@H](C)[C@@H]1O,Streptococcus pneumoniae,,,,,MIC50,0.0312 µg/mL
COC[C@H]1O[C@@H]2O[C@@H]3[C@@H](OC)[C@@H](OC)[C@@H](O[C@@H]4[C@@H](OC)[C@@H](OC)[C@@H](O[C@@H]5[C@@H](OC)[C@@H](OC)[C@@H](O[C@@H]6[C@@H](OC)[C@@H](OC)[C@@H](O[C@@H]7[C@@H](OC)[C@@H](OC)[C@@H](O[C@@H]1[C@@H](OC)[C@H]2OC)O[C@@H]7COC)O[C@@H]6COC)O[C@@H]5COC)O[C@@H]4COC)O[C@@H]3COC,Escherichia coli,"LuxR reporter, antagonist",DH5α sensor strain,"10 µM, added: OHHL 200 nM",,inhibition,-4 ± 1%
CCOC(=O)c1cc(-c2nc3ccccc3s2)c(=O)n(NS(=O)(=O)c2ccc(C)cc2)c1N,coxsackievirus B4,"viral replication, plaque",BGM,"non-toxic dose, mean of three titres",,plaque reduction,20%
COC(=O)[C@H](Cc1c[nH]c2ccccc12)NCc1cc2ccccc2nc1SC,Pseudomonas aeruginosa,,,"4 µg/mL, added: pentamidine 100 µM",relative to: control,growth,71.9%
CCOC1=CC(c2ccc[nH]2)=N/C1=C\c1cc(Cc2ccc(Cl)cc2)c(C)[nH]1.Cl,Plasmodium yoelii,parasitaemia,mouse,"4-day treatment, parasitaemia day 5",,ED50,1.56 mg/kg/day
Cc1cc(OC(C)C)ccc1C(=O)C(C)(C)NC(=O)c1sccc1C,Botrytis cinerea,lesion diameter,"B05.10, cucumber seedlings","spray, 3 days, 20 °C",,EC95,11.4 µg/mL
C[C@@H](O)[C@H]1C(=O)N2C(C(=O)O)=C(S[C@@H]3CN[C@H](C(=O)N(C)C)C3)[C@H](C)[C@H]12,Salmonella enterica München,broth microdilution,clinical isolate RKI 419/14,,,MIC,≤ 0.5 µg/mL
O=c1cccc(O)c(O)c1O,herpes simplex virus 1,viral replication,,1 µM,,reduction in viral titre,-0.14 log10
COC1=CC(c2ccc[nH]2)=N/C1=C\c1cc(Cc2ccc(OC(F)(F)F)cc2)c(C)[nH]1.Cl,Plasmodium yoelii,,CF1 mice,"oral, 25 mg/kg daily for 4 days, day 5",relative to: vehicle,parasitaemia reduction,100%
CN1CCN(c2cnc3c(cc(C(=O)NCc4ccc(Cl)cc4)c(=O)n3CC(=O)N3CC(C)(F)C3)n2)C1=O,herpes simplex virus 1,viral cytopathic effect,Vero,120 h,,EC50,380 nM
Cc1[nH]c(/C=C2\N=C(c3ccc[nH]3)C=C2OC(C)C)cc1Cc1ccc(Cl)cc1.Cl,Plasmodium yoelii,parasitaemia,mouse,"4-day treatment, parasitaemia day 5",,ED90,2.2 mg/kg/day
CN[C@H](CC(C)C)C(=O)N[C@H]1C(=O)N[C@@H](CC(N)=O)C(=O)N[C@H]2C(=O)N[C@H]3C(=O)N[C@H](C(=O)N[C@H](C(=O)O)c4cc(O)cc(O)c4-c4cc3ccc4O)[C@H](O)c3ccc(c(Cl)c3)Oc3cc2cc(c3O[C@@H]2O[C@H](CO)[C@@H](O)[C@H](O)[C@H]2O[C@H]2C[C@](C)(N)[C@H](O)[C@H](C)O2)Oc2ccc(cc2Cl)[C@H]1O,Staphylococcus aureus,,"MRSA, 10 isolates",pH 5.5,,MIC50,1 µg/mL
C=C(NC(=O)c1nccc(OC)c1O)C(=O)O[C@@H](C)[C@H](OC(=O)C(C)C)[C@@H](Cc1ccccc1)C(=O)O,Pseudokirchneriella subcapitata,growth rate,,"72 h, static test",,EC50,> 10 µg/mL
O=C(/C=C\n1cnc(-c2cc(C(F)(F)F)cc(C(F)(F)F)c2)n1)NNc1ccccn1,herpes simplex virus 1,viral replication,"K26, GFP-expressing, 3D bioprinted skin, submerged",,,IC50,350 nM
CS(=O)(=O)NCCCNCc1ccc(-c2cccc(-c3nc4cc(C(F)(F)F)ccc4[nH]3)c2)cc1,Plasmodium yoelii,,17XL,384-well,,IC50,> 20000 nM
CCOc1ccc2cc(-c3nn(CC4CCN(C)CC4)c4ncnc(N)c34)ccc2n1,Theileria equi,hydroethidine flow cytometry,USDA Florida,"6 µM, 72 h",,% of maximum PPE,48.1%
CC(Cl)=CCc1c(C)[nH]c2c(ccc3ccccc32)c1=O,Plasmodium yoelii,,17XL,384-well,,IC50,554 ± 208 nM
COC1=CC(c2ccc[nH]2)=N/C1=C\c1[nH]c(-c2ccc(OC)cc2)cc1-c1ccc(OC)cc1,Plasmodium yoelii,,CF1 mice,"oral, 10 mg/kg daily for 4 days, day 5",relative to: vehicle,parasitaemia reduction,0%
Cc1[nH]c(C)c(-c2ccc(C#Cc3ccc(F)cc3F)cc2)c(=O)c1Br,Plasmodium yoelii,,17XL,384-well,,IC50,129 ± 35 nM
COC(=O)[C@H](Cc1c[nH]c2ccccc12)NCc1cc2ccccc2nc1OC,Pseudomonas aeruginosa,,,"16 µg/mL, added: pentamidine 50 µM",relative to: control,growth,96.6%
O=C(c1cc(-c2ccco2)[nH]n1)N1CCN(S(=O)(=O)c2ccc(Cl)cc2)CC1,Plasmodium yoelii,,17XL,384-well,,IC50,411 ± 123 nM
N=C(N)c1ccc(OCc2cc(Br)cc(COc3ccc(C(=N)N)cc3)c2)cc1,Escherichia coli,checkerboard,mcr-2 polymyxin-resistant,"concentration not given, 20 h, added: rifampicin",,MIC of compound in combination,3.13 µg/mL

# Repeated from above:
Compound,organism,test,test system,conditions,scale,measurement,result
Cc1cc(OC(C)C)ccc1C(=O)C(C)(C)NC(=O)c1sccc1C,Botrytis cinerea,lesion diameter,"B05.10, cucumber seedlings","spray, 3 days, 20 °C",,EC95,11.4 µg/mL
COC1=CC(c2ccc[nH]2)=N/C1=C\c1[nH]c(Cc2ccc(OC(F)(F)F)cc2)cc1Cc1ccc(OC(F)(F)F)cc1,Plasmodium yoelii,,CF1 mice,"oral, 10 mg/kg daily for 4 days, day 5",relative to: vehicle,parasitaemia reduction,100%
Cc1[nH]c(/C=C2\N=C(c3ccc[nH]3)C=C2OCc2ccccc2)cc1Cc1ccc(OC(F)(F)F)cc1,Plasmodium yoelii,parasitaemia,mouse,"4-day treatment, parasitaemia day 5",,ED50,2.57 mg/kg/day
COC[C@H]1O[C@@H]2O[C@@H]3[C@@H](OC)[C@@H](OC)[C@@H](O[C@@H]4[C@@H](OC)[C@@H](OC)[C@@H](O[C@@H]5[C@@H](OC)[C@@H](OC)[C@@H](O[C@@H]6[C@@H](OC)[C@@H](OC)[C@@H](O[C@@H]7[C@@H](OC)[C@@H](OC)[C@@H](O[C@@H]1[C@@H](OC)[C@H]2OC)O[C@@H]7COC)O[C@@H]6COC)O[C@@H]5COC)O[C@@H]4COC)O[C@@H]3COC,Escherichia coli,"LuxR reporter, antagonist",DH5α sensor strain,"10 µM, added: OHHL 200 nM",,inhibition,-4 ± 1%
